{"data": "Experimental data gathered from unrelated publications", "note": "Each numbered part is a random draw from the data of one study; scales do not carry over between parts. Values joined by “and” are separate records of one study, mostly repeats; a detail may differ.", "chain of UniProt O43353 (whole entry, looked up)": "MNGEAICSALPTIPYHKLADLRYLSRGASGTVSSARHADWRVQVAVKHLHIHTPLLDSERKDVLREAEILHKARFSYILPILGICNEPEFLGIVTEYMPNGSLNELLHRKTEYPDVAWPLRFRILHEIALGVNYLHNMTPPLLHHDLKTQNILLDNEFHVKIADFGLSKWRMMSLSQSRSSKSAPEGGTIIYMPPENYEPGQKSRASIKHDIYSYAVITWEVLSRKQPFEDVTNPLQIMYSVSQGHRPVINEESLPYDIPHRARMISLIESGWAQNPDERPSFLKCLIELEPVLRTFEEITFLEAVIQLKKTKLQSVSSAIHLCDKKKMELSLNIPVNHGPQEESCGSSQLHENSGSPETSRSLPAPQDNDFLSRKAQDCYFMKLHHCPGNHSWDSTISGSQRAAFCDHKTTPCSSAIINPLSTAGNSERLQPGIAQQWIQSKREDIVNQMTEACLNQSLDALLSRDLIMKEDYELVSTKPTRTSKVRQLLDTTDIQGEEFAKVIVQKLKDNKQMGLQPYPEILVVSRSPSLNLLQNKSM"}
{"data": "Block 1", "host": "mouse", "medium": "microsomes or S9", "concentration": "2 µM", "time": "0.5 h"}
{"SMILES": "CC(C)n1c(C(=O)NCc2nnc3ccccn23)cc2cc(Cl)ccc21", "remaining compound [%]": 38.4}
{"SMILES": "COc1cccc(Cn2nnc3cc(C(=O)N4CCC5(CC4)OCCO5)ccc32)c1", "remaining compound [%]": 22}
{"SMILES": "Cc1ccc(/N=C/N(C)/C=N/c2ccc(C)cc2C)c(C)c1", "remaining compound [%]": 6.15}
{"data": "Block 2", "target": "Beta-1 adrenergic receptor (ADRB1, Homo sapiens, UniProt P08588)", "action": "antagonist", "chain of UniProt P08588 (whole entry, looked up)": "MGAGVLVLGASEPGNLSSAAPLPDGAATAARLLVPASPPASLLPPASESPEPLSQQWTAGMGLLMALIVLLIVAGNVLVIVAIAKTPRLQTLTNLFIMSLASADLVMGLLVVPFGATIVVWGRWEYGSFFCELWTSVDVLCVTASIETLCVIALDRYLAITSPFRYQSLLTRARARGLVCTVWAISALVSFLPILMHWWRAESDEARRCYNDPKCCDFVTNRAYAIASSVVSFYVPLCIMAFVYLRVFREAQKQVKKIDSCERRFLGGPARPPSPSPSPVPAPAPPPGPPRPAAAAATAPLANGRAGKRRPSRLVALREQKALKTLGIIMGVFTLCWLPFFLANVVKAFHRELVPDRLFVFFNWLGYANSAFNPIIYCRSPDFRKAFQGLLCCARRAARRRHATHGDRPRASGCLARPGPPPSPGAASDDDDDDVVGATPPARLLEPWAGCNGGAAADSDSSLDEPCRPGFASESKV"}
{"Structure (SMILES)": "COCCN1CCN(c2ccccc2OC)CC1", "IC50 [µM]": "≥ 100"}
{"Structure (SMILES)": "NCCc1cc(O)c(O)cc1O", "IC50 [µM]": "≥ 100"}
{"Structure (SMILES)": "COc1cc2c(cc1OCc1ccccc1)N(C(=O)c1cccc3[nH]ccc13)CC21CCN(C)CC1", "IC50 [µM]": "≥ 100"}
{"Structure (SMILES)": "CC1=C(C)C(=O)O[C@H]([C@](C)(O)C2(O)CC[C@@]3(O)[C@@H]4CC=C5CC=CC(=O)[C@]5(C)C4CC[C@]23C)C1 (some centres unmarked)", "IC50 [µM]": "≥ 100"}
{"data": "Block 3", "Compound": "O=C1CCC(N2Cc3c(ccc4c3OCC43CCN(Cc4ccccc4)CC3)C2=O)C(=O)N1 (centres unmarked)", "KCNH2": "Voltage-gated inwardly rectifying potassium channel KCNH2 (KCNH2, Homo sapiens, UniProt Q12809)", "CRBN": "Protein cereblon (CRBN, Homo sapiens, UniProt Q96SW2)", "chain of UniProt Q12809 (whole entry, looked up)": "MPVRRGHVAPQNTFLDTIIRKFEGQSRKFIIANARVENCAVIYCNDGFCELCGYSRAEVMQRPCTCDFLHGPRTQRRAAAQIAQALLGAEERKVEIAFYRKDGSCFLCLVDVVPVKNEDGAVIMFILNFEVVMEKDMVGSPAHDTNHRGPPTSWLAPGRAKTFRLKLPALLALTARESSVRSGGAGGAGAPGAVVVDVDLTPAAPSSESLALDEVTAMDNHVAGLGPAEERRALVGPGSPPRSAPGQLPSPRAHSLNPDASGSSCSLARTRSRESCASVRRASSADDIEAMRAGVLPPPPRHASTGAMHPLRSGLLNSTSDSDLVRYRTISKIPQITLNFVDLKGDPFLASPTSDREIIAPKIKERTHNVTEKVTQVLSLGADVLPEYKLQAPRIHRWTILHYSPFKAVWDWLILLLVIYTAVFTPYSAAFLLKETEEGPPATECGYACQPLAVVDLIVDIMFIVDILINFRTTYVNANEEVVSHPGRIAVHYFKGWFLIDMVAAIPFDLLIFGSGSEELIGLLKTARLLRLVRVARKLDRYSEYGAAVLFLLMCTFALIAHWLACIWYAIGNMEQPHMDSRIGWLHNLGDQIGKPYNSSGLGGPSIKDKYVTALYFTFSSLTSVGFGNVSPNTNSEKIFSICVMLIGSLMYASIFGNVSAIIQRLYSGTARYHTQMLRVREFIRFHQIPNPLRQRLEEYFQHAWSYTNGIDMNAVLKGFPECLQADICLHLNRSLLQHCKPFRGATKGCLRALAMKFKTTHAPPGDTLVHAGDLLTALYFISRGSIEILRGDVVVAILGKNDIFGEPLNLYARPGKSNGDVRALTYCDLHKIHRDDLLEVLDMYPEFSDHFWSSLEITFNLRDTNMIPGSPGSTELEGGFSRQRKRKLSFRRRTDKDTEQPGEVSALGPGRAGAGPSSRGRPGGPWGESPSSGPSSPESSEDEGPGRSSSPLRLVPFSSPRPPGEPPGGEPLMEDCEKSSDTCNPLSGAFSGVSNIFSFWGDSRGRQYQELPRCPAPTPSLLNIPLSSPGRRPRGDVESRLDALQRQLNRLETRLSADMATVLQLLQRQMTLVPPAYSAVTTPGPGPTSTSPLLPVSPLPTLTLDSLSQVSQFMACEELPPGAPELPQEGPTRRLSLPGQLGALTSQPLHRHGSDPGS", "chain of UniProt Q96SW2 (whole entry, looked up)": "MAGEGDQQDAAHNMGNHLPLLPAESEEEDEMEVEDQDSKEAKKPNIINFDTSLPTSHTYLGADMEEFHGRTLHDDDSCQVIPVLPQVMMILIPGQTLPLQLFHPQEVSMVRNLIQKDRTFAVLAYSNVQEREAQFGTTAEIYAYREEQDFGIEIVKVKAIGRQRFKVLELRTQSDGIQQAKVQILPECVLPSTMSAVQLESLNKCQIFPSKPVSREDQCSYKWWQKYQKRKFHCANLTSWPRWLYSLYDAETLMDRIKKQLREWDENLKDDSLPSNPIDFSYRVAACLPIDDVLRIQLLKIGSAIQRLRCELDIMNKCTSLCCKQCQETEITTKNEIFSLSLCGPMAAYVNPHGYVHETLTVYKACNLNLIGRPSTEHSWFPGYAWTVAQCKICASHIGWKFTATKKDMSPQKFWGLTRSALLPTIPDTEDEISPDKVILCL"}
{"target": "KCNH2", "observed": "hERG current", "technique": "voltage clamp", "cells": "HEK293 stably expressing hERG", "concentration": "0.001 µM", "inhibition": "-0.07% and 0.08% and 1.67%"}
{"target": "CRBN", "observed": "cell-free assay", "technique": "TR-FRET", "concentration": "370.4 µM", "inhibition": "81.6%"}
{"target": "KCNH2", "observed": "hERG current", "technique": "patch clamp", "cells": "HEK293 expressing hERG", "concentration": "0.1 µM", "inhibition": "76.4%"}
{"target": "CRBN", "observed": "cell-free assay", "technique": "TR-FRET", "concentration": "0.51 µM", "inhibition": "0.9% and 2.9%"}
{"target": "KCNH2", "observed": "hERG current", "technique": "voltage clamp", "cells": "HEK293 stably expressing hERG", "concentration": "0.01 µM", "inhibition": "3.32% and 5.31% and 0.58%"}
{"target": "KCNH2", "observed": "hERG current", "technique": "patch clamp", "cells": "HEK293 expressing hERG", "concentration": "0.01 µM", "inhibition": "4.32%"}
{"data": "Mixed results"}
{"SMILES": "CC(C)(C)c1cc(C=C(C#N)C#N)cc(Br)c1O", "target": "Receptor-interacting serine/threonine-protein kinase 2 (RIPK2, Homo sapiens, UniProt O43353)", "observed": "enzyme activity", "action": "inhibitor", "technique": "radiometric", "endpoint": "IC50", "value": "0.522 µM"}
{"note": "Some of these lines once more (block 2):"}
{"Structure (SMILES)": "COCCN1CCN(c2ccccc2OC)CC1", "IC50 [µM]": "≥ 100"}
{"Structure (SMILES)": "CC1=C(C)C(=O)O[C@H]([C@](C)(O)C2(O)CC[C@@]3(O)[C@@H]4CC=C5CC=CC(=O)[C@]5(C)C4CC[C@]23C)C1 (some centres unmarked)", "IC50 [µM]": "≥ 100"}
